Measurements of several laboratories.
Protocols differ between the studies behind these lines. Numbers after ± are the reported error.

`CN1CCCC1CCNS(=O)(=O)c1ccc2c(c1)CN(CC1CCCCC1)CC2` (stereo not drawn) gave a Tmax of 2 h (mouse, brain; oral, 10 mg/kg).
`CC(=O)NCc1cc2c(cc1F)C(=O)N(C1CCC(=O)NC1=O)C2` (stereo not drawn) gave a Tmax of 1.3 ± 0.6 h (male CD-1 mouse, plasma; oral, 10 mg/kg of parent drug).
`FC(F)(F)Oc1ccc(Nc2cc(-c3cn[nH]c3)ncn2)cc1` gave a Tmax of 3 h (male BALB/c mouse, plasma; oral, 20 mg/kg).
With `c1csc(CNc2cc[nH]n2)c1` the Tmax was 0.25 h (male CD-1 mouse, plasma; oral, 20 mg/kg, hydrochloride salt).
With `O=C(O)C[C@H](O)C[C@H](O)/C=C/c1c(C2CC2)nc2ccccc2c1-c1ccc(F)cc1` the Tmax was 0.5 h (FVB wild-type mouse, plasma; oral, 5 mg/kg, with: silymarin 500 mg/kg oral).
For `Cc1ncccc1-c1cnc(NCc2c(F)ccc3c2CCO3)n2cnnc12`, the Tmax was 1 h (female CB17 SCID mouse, HT-1376 xenograft, plasma; 75 mg/kg, day 1).
With `Cc1cc(NC2CCc3cc(Cl)ccc3C2)n2nc(C(C)(F)F)nc2n1` (stereo not drawn) the Tmax was 2 h (NSG mouse, whole blood; oral, 30 mg/kg).
`CN1CCC[C@H](CN2c3ccccc3Sc3ccccc32)C1.Cl` has a Tmax of 1 h (ICR mouse female fasted, lung; oral, 16 mg/kg).
`Cc1cc(NC2Cc3cc(F)c(F)cc3C2)n2nc(C(C)(F)F)nc2n1` gave a Tmax of 8 h (NSG mouse, whole blood; oral, 10 mg/kg).
`CCOC(=O)C1=C(CN2CCC[C@@H]2C(=O)Nc2ccc(B(O)O)cc2)NC(c2nccs2)=N[C@H]1c1ccc(F)cc1Br` has a Tmax of 0.08 h (ICR mouse, plasma; intravenous, 2 mg/kg).
`CN[C@H](CC(C)C)C(=O)N[C@H]1C(=O)N[C@@H](CC(N)=O)C(=O)N[C@H]2C(=O)N[C@H]3C(=O)N[C@H](C(=O)N[C@H](C(=O)O)c4cc(O)cc(O)c4-c4cc3ccc4O)[C@H](O)c3ccc(c(Cl)c3)Oc3cc2cc(c3O[C@@H]2O[C@H](CO)[C@@H](O)[C@H](O)[C@H]2O[C@H]2C[C@](C)(N)[C@H](O)[C@H](C)O2)Oc2ccc(cc2Cl)[C@H]1O` gave a Tmax of 20 h (C57BL/6N mouse H2, faeces; po, 0.5 mL, 20 mg/mL solution).
The Tmax of `CC(=O)N(C)C1CCN(c2cc(F)cc(NC(=O)c3cc4c(F)ccc(C)c4[nH]3)c2)C1` (stereo not drawn) is reported as 1.3 h (CD1 mouse; oral, 50 mg/kg).
The Tmax of `Cc1cc(N[C@H]2CCc3ccc(Cl)cc3C2)n2nc(C(C)(F)F)nc2n1` is reported as 4 h (NSG mouse, whole blood; oral, 10 mg/kg).
The Tmax of `CN1CCN(C(=O)c2cc3c(Nc4ccc(OC(F)(F)F)cc4)ncnc3s2)CC1` is reported as 0.5 h (male BALB/c mouse, plasma; oral, 20 mg/kg).
`CC[C@H](C)[C@@H]1NC(=O)[C@@](C)(NC(=O)[C@H](CCCNC(=N)N)NC(=O)[C@H](CC(C)C)NC(=O)[C@@H](NC(=O)[C@H](CCC(N)=O)NC(=O)[C@H](CC(C)C)NC(C)=O)[C@@H](C)O)CCCC=CCCC[C@@](C)(C(=O)N[C@@H](CC(C)C)C(=O)N[C@@H](Cc2ccc3ccccc3c2)C(N)=O)NC(=O)[C@H](CCCNC(=N)N)NC(=O)[C@H](CCC(N)=O)NC1=O` gave a Tmax of 2 h (BALB/c mouse; intraperitoneal, 5 mg/kg).

A few entries again:
The Tmax of `Cc1cc(N[C@H]2CCc3ccc(Cl)cc3C2)n2nc(C(C)(F)F)nc2n1` is reported as 4 h (NSG mouse, whole blood; oral, 10 mg/kg).
